Assay results collected from several papers.
Compare with care: the assays were run in different laboratories.
Organism: Acinetobacter baumannii

COc1ccc2ccc(O)c(/C=N/[C@H]3CCCC[C@H]3/N=C/c3cccc(C)c3O)c2c1 has an MIC of greater than 40 µM (bacterial growth, broth microdilution; carbapenem-resistant clinical isolate).
With CC1(C)[C@H](NC(=O)/C(=N\OCC(=O)N2CCC(C(=O)O)CC2)c2csc(N)n2)C(=O)N1OS(=O)(=O)O the MIC was greater than 64 µg/mL (agar dilution; 16-16).
With CCCCCCCC(=O)N[C@@H](CN)C(=O)N[C@H](C(=O)N[C@@H](CCN)C(=O)N[C@H]1CCNC(=O)[C@H]([C@@H](C)O)NC(=O)[C@H](CCN)NC(=O)[C@H](CCN)NC(=O)[C@H]([C@@H](C)O)NC(=O)[C@@H](CC(C)C)NC(=O)[C@H](CCN)NC1=O)[C@@H](C)O the MIC was 2 µg/mL (ATCC 17978, CAMHB; 20 h, 37 °C).
The MIC of CN[C@H](CC(C)C)C(=O)N[C@H]1C(=O)N[C@@H](CC(N)=O)C(=O)N[C@H]2C(=O)N[C@H]3C(=O)N[C@H](C(=O)N[C@H](C(=O)NCc4cn(CCCCC(=O)N[C@H](C(=O)N[C@@H](CCN)C(=O)N[C@H]5CCNC(=O)[C@H]([C@@H](C)O)NC(=O)[C@H](CCN)NC(=O)[C@H](CCN)NC(=O)[C@H](CC(C)C)NC(=O)[C@@H](CC(C)C)NC(=O)[C@H](CCN)NC5=O)[C@@H](C)O)nn4)c4cc(O)cc(O)c4-c4cc3ccc4O)[C@H](O)c3ccc(c(Cl)c3)Oc3cc2cc(c3O[C@@H]2O[C@H](CO)[C@@H](O)[C@H](O)[C@H]2O[C@H]2C[C@](C)(N)[C@H](O)[C@H](C)O2)Oc2ccc(cc2Cl)[C@H]1O is reported as 64 µg/mL (broth microdilution; BAA-747, cation-adjusted Mueller-Hinton broth; 18 to 20 h, 37 °C, 0.002% polysorbate 80).
C/C(=C\c1ccc(O)cc1)C(=O)Nc1ccc(C(=O)N[C@@H](Cc2c[nH]nn2)C(=O)Nc2ccc(C(=O)Nc3ccc(C(=O)Nc4ccc(C(=O)O)cc4)c(O)c3)cc2)cc1 gave an MIC of 4 µg/mL (broth microdilution; ciprofloxacin-resistant).
With CCCCCC[N+](C)(C)CCCCCCCCCCOc1cc(OCCCCCCCCCC[N+](C)(C)CCCCCC)cc(OCCCCCCCCCC[N+](C)(C)CCCCCC)c1.[Br-].[Br-].[Br-] the MIC was 2 µM (ATCC 17978).
CCCCCCCC(=O)N[C@@H](CCN)C(=O)N[C@H](C(=O)N[C@@H](CN)C(=O)N[C@H]1CCNC(=O)[C@H]([C@@H](C)O)NC(=O)[C@H](CCCN)NC(=O)[C@H](CCN)NC(=O)[C@H]([C@@H](C)O)NC(=O)[C@@H](CC(C)C)NC(=O)[C@H](CCN)NC1=O)[C@@H](C)O has an MIC of 16 µg/mL (ATCC 19606, CAMHB; 20 h, 37 °C).
With CCCCCCCC(=O)N[C@@H](CCN)C(=O)N[C@H](C(=O)N[C@@H](CCN)C(=O)N[C@H]1CCNC(=O)[C@H]([C@@H](C)O)NC(=O)[C@H](CCN)NC(=O)[C@H](CCN)NC(=O)[C@H](CC(C)C)NC(=O)[C@@H](Cc2ccccc2)NC(=O)[C@H](C)NC1=O)[C@@H](C)O the MIC was greater than 512 µg/mL (broth microdilution; ATCC 19606; 20 h, 37 °C).
The MIC of CC(C)C[C@@H]1NC(=O)[C@@H](CC(C)C)NC(=O)[C@H](CCN)NC(=O)[C@@H](NC(=O)[C@H](CCN)NC(=O)[C@@H](N)[C@@H](C)O)CCNC(=O)[C@H]([C@@H](C)O)NC(=O)[C@H](CCN)NC(=O)[C@H](CCN)NC1=O is reported as greater than 128 µg/mL (broth microdilution; BAA-747, cation-adjusted Mueller-Hinton broth; 18 to 20 h, 37 °C, 0.002% polysorbate 80).
With Cc1c(CN(C)C(=O)/C=C/c2cnc3c(c2)CC(N)C(=O)N3)oc2ccccc12 (stereo not shown) the MIC was 64 µg/mL (broth microdilution; KB304).
For CCCCCCCC(=O)N[C@@H](C)C(=O)N[C@H](C(=O)N[C@@H](CCN)C(=O)N[C@H]1CCNC(=O)[C@H]([C@@H](C)O)NC(=O)[C@H](CCN)NC(=O)[C@H](CCN)NC(=O)[C@H](CC(C)C)NC(=O)[C@@H](Cc2ccccc2)NC(=O)[C@H](CCN)NC1=O)[C@@H](C)O, the MIC was 256 µg/mL (CLSI broth microdilution; 248-01-C.248, CAMHB; 20 h, 37 °C).
The MIC of CC[C@H]1OC(=O)[C@H](C)C(=O)[C@H](C)[C@@H](O[C@@H]2O[C@H](C)C[C@H](N(C)C)[C@H]2O)[C@](C)(OC)C[C@@H](C)C(=O)[C@H](C)[C@H]2N(CCCCn3cnc(-c4cccnc4)c3)C(=O)O[C@]12C is reported as greater than 32 µg/mL (microbial growth; ATCC19606).
With CC1(C)[C@H](NC(=O)/C(=N\OCC(=O)N2CCC[C@@H]2C(=O)O)c2nsc(N)n2)C(=O)N1OS(=O)(=O)O the MIC was greater than 64 µg/mL (agar dilution; ATCC 19606).
With COc1c(NC(=O)c2ccc(NC(=O)c3ccc(NC(=O)[C@H](Cc4c[nH]nn4)NC(=O)c4ccc(NC(=O)/C(C)=C/c5ccc(O)cc5)cc4)cc3)cc2O)ccc(C(=O)O)c1O the MIC was 8 µg/mL (broth microdilution; ciprofloxacin-resistant).
The MIC of CCCCCCCCn1cc[n+](CCCCCCCCCCOc2cc(OCCCCCCCCCC[n+]3ccn(CCCCCCCC)c3)cc(OCCCCCCCCCC[n+]3ccn(CCCCCCCC)c3)c2)c1.[Br-].[Br-].[Br-] is reported as 16 µM (ATCC 17978).
For CC1(C)[C@H](NC(=O)/C(=N\OCC(=O)N2CCC(C(=O)O)C2)c2nsc(N)n2)C(=O)N1OS(=O)(=O)O (stereo partly shown), the MIC was greater than 64 µg/mL (agar dilution; ATCC 19606).
With CCCCCCCC(=O)N[C@@H](CCN)C(=O)N[C@H](C(=O)N[C@@H](CN)C(=O)N[C@H]1CCNC(=O)[C@H]([C@@H](C)O)NC(=O)[C@H](CCN)NC(=O)[C@H](CCN)NC(=O)[C@H]([C@@H](C)O)NC(=O)[C@@H](CC(C)C)NC(=O)[C@H](CCN)NC1=O)[C@@H](C)O the MIC was 0.5 µg/mL (ATCC 17978, CAMHB; 20 h, 37 °C).
The MIC of CC1(C)[C@H](NC(=O)/C(=N\OC2(C(=O)O)CC2)c2nsc(N)n2)C(=O)N1OS(=O)(=O)O is reported as 16 µg/mL (agar dilution; ATCC 19606).
For COc1ccc(/C=N/[C@@H]2CCCC[C@@H]2/N=C/c2c(O)ccc3ccc(OC)cc23)c(O)c1, the MIC was greater than 40 µM (bacterial growth, broth microdilution; carbapenem-resistant clinical isolate).
With CCCCCCCCCC[N+](C)(C)CCCCCCCCCCOc1cc(OCCCCCCCCCC[N+](C)(C)CCCCCCCCCC)cc(OCCCCCCCCCC[N+](C)(C)CCCCCCCCCC)c1.[Br-].[Br-].[Br-] the MIC was 250 µM (ATCC 17978).
CC[C@H]1OC(=O)[C@H](C)[C@@H](OC(=O)Cc2c(F)cccc2F)[C@H](C)[C@@H](O[C@@H]2O[C@H](C)C[C@H](N(C)C)[C@H]2O)[C@](C)(OC)C[C@@H](C)C(=O)[C@H](C)[C@@H](O)[C@]1(C)O gave an MIC of 64 µM (DSM 30007).
For CCCCCCCCCCCC[N+](C)(C)CCCCCCCCOc1cc(OCCCCCCCC[N+](C)(C)CCCCCCCCCCCC)cc(OCCCCCCCC[N+](C)(C)CCCCCCCCCCCC)c1.[Br-].[Br-].[Br-], the MIC was 125 µM (ATCC 17978).
O=[N+]([O-])c1c(Br)c(Cl)c2cccnc2c1O has an MIC of 2 µg/mL (microbial growth, broth dilution; ATCC19606).
With C#CCNC(=O)C1(O/N=C(\C(=O)N[C@@H]2C(=O)N(OS(=O)(=O)O)C2(C)C)c2csc(N)n2)CC1 the MIC was 32 µg/mL (agar dilution; ATCC 19606).
CN[C@H](CC(C)C)C(=O)N[C@H]1C(=O)N[C@@H](CC(N)=O)C(=O)N[C@H]2C(=O)N[C@H]3C(=O)N[C@H](C(=O)N[C@H](C(=O)O)c4cc(O)cc(O)c4-c4cc3ccc4O)[C@H](O)c3ccc(c(Cl)c3)Oc3cc2cc(c3O[C@@H]2O[C@H](CO)[C@@H](O)[C@H](O)[C@H]2O[C@H]2C[C@](C)(NCc3ccc(OCc4cn(CCCCC(=O)N[C@H](C(=O)N[C@@H](CCN)C(=O)N[C@H]5CCNC(=O)[C@H]([C@@H](C)O)NC(=O)[C@H](CCN)NC(=O)[C@H](CCN)NC(=O)[C@H](CC(C)C)NC(=O)[C@@H](CC(C)C)NC(=O)[C@H](CCN)NC5=O)[C@@H](C)O)nn4)c(OC)c3)[C@H](O)[C@H](C)O2)Oc2ccc(cc2Cl)[C@H]1O gave an MIC of 32 µg/mL (broth microdilution; BAA-747, cation-adjusted Mueller-Hinton broth; 18 to 20 h, 37 °C, 0.002% polysorbate 80).
CCCCCCCC(=O)N[C@@H](CCN)C(=O)N[C@H](C(=O)N[C@@H](CN)C(=O)N[C@H]1CCNC(=O)[C@H]([C@@H](C)O)NC(=O)[C@H](CCN)NC(=O)[C@H](CCCN)NC(=O)[C@H]([C@@H](C)O)NC(=O)[C@@H](CC(C)C)NC(=O)[C@H](CCN)NC1=O)[C@@H](C)O has an MIC of 0.5 µg/mL (ATCC 17978, CAMHB; 20 h, 37 °C).
With CCCCCCCC(=O)N[C@@H](CCN)C(=O)N[C@H](C(=O)N[C@@H](CCN)C(=O)N[C@H]1CCNC(=O)[C@H]([C@@H](C)O)NC(=O)[C@H](CCN)NC(=O)[C@H](C)NC(=O)[C@H](CC(C)C)NC(=O)[C@@H](Cc2ccccc2)NC(=O)[C@H](CCN)NC1=O)[C@@H](C)O the MIC was 16 µg/mL (CLSI broth microdilution; 246-01-C.246, CAMHB; 20 h, 37 °C).
CC[C@H]1OC(=O)[C@H](C)[C@@H](OC(=O)Cc2ccc3c(c2)OCO3)[C@H](C)[C@@H](O[C@@H]2O[C@H](C)C[C@H](N(C)C)[C@H]2O)[C@](C)(OC)C[C@@H](C)C(=O)[C@H](C)[C@@H](O)[C@]1(C)O gave an MIC of 16 to 32 µg/mL (microbial growth; ATCC19606 DSM30007).
C/C(=C\c1ccc(O)cc1)C(=O)Nc1ccc(C(=O)N[C@@H](Cc2c[nH]nn2)C(=O)Nc2ccc(C(=O)Nc3ccc(C(=O)Nc4ccc(C(=O)O)cc4)cc3)cc2)cc1 has an MIC of 1 µg/mL (broth microdilution; ciprofloxacin-resistant).
CC[C@H]1OC(=O)[C@H](C)[C@@H](OC(=O)Cc2cccc(Cl)c2)[C@H](C)[C@@H](O[C@@H]2O[C@H](C)C[C@H](N(C)C)[C@H]2O)[C@](C)(OC)C[C@@H](C)C(=O)[C@H](C)[C@@H](O)[C@]1(C)O gave an MIC of greater than 32 µg/mL (microbial growth; ATCC19606).
C#CCO/N=C(\C(=O)N[C@@H]1C(=O)N(OS(=O)(=O)O)C1(C)C)c1nsc(N)n1 gave an MIC of greater than 64 µg/mL (agar dilution; ATCC 19606).

A few entries again:
With CCCCCCCC(=O)N[C@@H](CCN)C(=O)N[C@H](C(=O)N[C@@H](CN)C(=O)N[C@H]1CCNC(=O)[C@H]([C@@H](C)O)NC(=O)[C@H](CCN)NC(=O)[C@H](CCN)NC(=O)[C@H]([C@@H](C)O)NC(=O)[C@@H](CC(C)C)NC(=O)[C@H](CCN)NC1=O)[C@@H](C)O the MIC was 0.5 µg/mL (ATCC 17978, CAMHB; 20 h, 37 °C).
The MIC of CN[C@H](CC(C)C)C(=O)N[C@H]1C(=O)N[C@@H](CC(N)=O)C(=O)N[C@H]2C(=O)N[C@H]3C(=O)N[C@H](C(=O)N[C@H](C(=O)NCc4cn(CCCCC(=O)N[C@H](C(=O)N[C@@H](CCN)C(=O)N[C@H]5CCNC(=O)[C@H]([C@@H](C)O)NC(=O)[C@H](CCN)NC(=O)[C@H](CCN)NC(=O)[C@H](CC(C)C)NC(=O)[C@@H](CC(C)C)NC(=O)[C@H](CCN)NC5=O)[C@@H](C)O)nn4)c4cc(O)cc(O)c4-c4cc3ccc4O)[C@H](O)c3ccc(c(Cl)c3)Oc3cc2cc(c3O[C@@H]2O[C@H](CO)[C@@H](O)[C@H](O)[C@H]2O[C@H]2C[C@](C)(N)[C@H](O)[C@H](C)O2)Oc2ccc(cc2Cl)[C@H]1O is reported as 64 µg/mL (broth microdilution; BAA-747, cation-adjusted Mueller-Hinton broth; 18 to 20 h, 37 °C, 0.002% polysorbate 80).
For CCCCCCCCCCCC[N+](C)(C)CCCCCCCCOc1cc(OCCCCCCCC[N+](C)(C)CCCCCCCCCCCC)cc(OCCCCCCCC[N+](C)(C)CCCCCCCCCCCC)c1.[Br-].[Br-].[Br-], the MIC was 125 µM (ATCC 17978).
The MIC of CCCCCCCCn1cc[n+](CCCCCCCCCCOc2cc(OCCCCCCCCCC[n+]3ccn(CCCCCCCC)c3)cc(OCCCCCCCCCC[n+]3ccn(CCCCCCCC)c3)c2)c1.[Br-].[Br-].[Br-] is reported as 16 µM (ATCC 17978).
C#CCO/N=C(\C(=O)N[C@@H]1C(=O)N(OS(=O)(=O)O)C1(C)C)c1nsc(N)n1 gave an MIC of greater than 64 µg/mL (agar dilution; ATCC 19606).
